# Experimental data pooled from the literature.
# Each line is one published result; not all experiments were run side by side. Numbers after ± are the reported error. Bridges are numbered along the chain shown (N, C = ends).
# B1: disulfide; chain MRGSHHHHHHGSNEKGETSEKTIVRANGTRLEYTDIKSDGIEGRVDGGGGSDDDDKMACQPRNLNNCGGGS (disulfide 59-67 (inferred))
Substance,organism,test,system,conditions,EC50
Nc1ncnc2c1ncn2C[C@H](O)CO,human respiratory syncytial virus,cytopathic effect,HeLa,,> 250 µM
Cc1ccc(S(=O)(=O)N2C(=O)CSC2c2ccc(C(C)C)cc2)cc1 (stereo not drawn),herpes simplex virus 2,viral cytopathicity,"HEL, G",,> 100 µM
O=c1[nH]c(=O)c2ncn(C[C@H](CF)OCP(=O)(O)O)c2[nH]1,Human alphaherpesvirus 3,"plaque formation, inhibitor",HEL,,> 313 µM
CCCC(=O)OCSc1ccccc1C(=O)NCCC(N)=O,HIV-1,viral replication,"human monocytes/macrophages, subtype B BaL, CCR5-tropic",,18.7 µM
O=S(=O)(c1cccs1)N1CCCCN2[C@H](CO)[C@@H](c3ccc(/C=C/c4ccccc4)cc3)[C@@H]2C1,Respiratory syncytial virus,cytopathic effect,A2,,1.7 µM
C[C@@]1(O)[C@H](O)[C@@H](CO)O[C@H]1n1ccc(=O)[nH]c1=O,hepatitis C virus,"viral replication, luciferase reporter",genotype 1b Con1 replicon,72 h,6.31 µM
CN[C@@H]1[C@H](O[C@@H]2OC[C@@H](O)[C@H](O)[C@H]2O)[C@@H](O)[C@H](O[C@H]2c3cc(C)c(C(=O)N[C@H](C)C(=O)O)c(O)c3-c3c(cc4c(c3O)C(=O)c3cc(OC)cc(O)c3C4=O)[C@@H]2O)O[C@@H]1C,feline coronavirus,"viral cytopathicity, MTT","FCWF, FIPV 79-1146, serotype II",48 h,> 120 µM
O=c1[nH]cnc2c1ncn2[C@H]1CC[C@@H](CO)O1,HIV-2,"viral cytopathicity, MTT","MT-4, ROD",,19 µM
Nc1nc(N)c2nc(CNc3ccc(C(=O)N[C@@H](CCC(=O)O)C(=O)O)cc3)cnc2n1,human respiratory syncytial virus,viral replication,BEAS-2B,,0.07 µM
COc1cc([C@@H]2c3cc4c(cc3C(=O)[C@H]3COC(=O)[C@H]23)OCO4)cc(OC)c1OC,Leishmania infantum,parasite growth,,promastigote,> 100 µM
Cc1cc(C#N)cc(C)c1Oc1nc(NC2CCN(Cc3ccc(S(N)(=O)=O)cc3)CC2)nc2c1SCC2,HIV-2,viral replication,"MT-4, ROD",,5.1 µM
O=C(Cc1csc2nc(-c3ccc(Br)cc3)cn12)NN=C1CCC(c2ccccc2)CC1 (stereo not drawn),feline coronavirus,viral cytopathic effect,CRFK,,> 100 µg/mL
COc1ccc(CC(CC(=O)O)C(=O)O)cc1OC (stereo not drawn),hepatitis C virus,viral RNA replication,"Huh-7 with HCV replicon, genotype 2a",48 h,75 µM
O=C(Nc1ccc(F)c(-c2nc3ncc(-c4ccccc4)cc3[nH]2)c1)N1CCCC1,Leishmania amazonensis,alamarBlue,axenic amastigotes,72 h,0.16 ± 0.0018 µM
CCC(C)(C)C(=O)O[C@H]1C[C@@H](C)C=C2C=C[C@H](C)[C@H](CC[C@@H]3C[C@@H](O)CC(=O)O3)[C@H]21,hepatitis B virus,viral replication,HepG2.2.15,,2.5 ± 0.3 µM
COC(=O)N[C@H](C(=O)N1CCC[C@H]1c1ncc(-c2ccc(-c3ccc(-c4cnc([C@@H]5CCCN5C(=O)[C@@H](NC(=O)OC)C(C)C)[nH]4)cc3)cc2)[nH]1)C(C)C,hepatitis C virus,"viral replication, transient replicon",genotype 1a NS5A Q30H,,0.0087 ± 0.0019 µM
NC(=O)c1ncn([C@@H]2O[C@H](CO)[C@@H](O)[C@H]2O)n1,Coxsackievirus B4,"viral cytopathic effect, visual CPE scoring",HEp-2,,183 µM
O=C(N/N=C1\C(=O)Nc2ccccc21)N/N=C1\C(=O)Nc2ccccc21,varicella-zoster virus,plaque formation,"HEL, TK+",,> 20 µM
Cc1oncc1C(=O)Nc1ccc(C(F)(F)F)cc1,human coronavirus OC43,"viral RNA, qPCR",Huh-7,7 d,72.6 µM
Nc1ncnc2c1ncn2[C@@H]1O[C@H](CO)C(O)C1(F)Br (stereo in doubt),hepatitis C virus,viral replication,"Huh-7, genotype 1b replicon",,> 10 µM
Nc1ccc(S(N)(=O)=O)cc1,Human gammaherpesvirus 8,latent viral DNA,BC-3,,8 ± 4 µg/mL
CC1(C)N=C(N)N=C(N)N1c1cccc(C(F)(F)F)c1,human respiratory syncytial virus,"cytopathic effect, microscopy","HeLa, Long",,~0.008 µM
Cc1c(C(=O)C(=O)NCc2cn(CCCCCCCCCCCCCCn3cc(CNC(=O)C(=O)c4c(C)c(C(=O)Nc5ccc(F)c(F)c5)n(C)c4C)nn3)nn2)c(C)n(C)c1C(=O)Nc1ccc(F)c(F)c1,hepatitis B virus,"viral replication, chemiluminescence immunoassay, item: secreted HBeAg",HBV-infected HepG2-NTCP cells,"7 days post-infection, dosed from 24 h pre-infection",0.098 ± 0.012 µM
Cc1ccc(S(=O)(=O)N2C(=O)CSC2c2ccccc2O)cc1 (stereo not drawn),HIV-2,"viral cytopathicity, MTT","MT-4, ROD",,> 125 µM
CC[C@H]1/C=C/C=C/C[C@@H](C)[C@H](O)[C@@](C)(O)C(=O)[C@@H](C)[C@H](O)[C@@H](C)C(=O)[C@@H](C)[C@H](O)[C@@H](C)/C=C/C(=O)O[C@@H]2[C@H](C)[C@H](CC1)O[C@]1(CC[C@H](C)[C@H](C[C@@H](C)O)O1)[C@H]2C,Feline infectious peritonitis virus,"viral replication, visual scoring",,48 h,17.8 ± 0.48 µM
CCN(CC)S(=O)(=O)c1ccc(C(=O)Nc2cc(C)nn2-c2nc(C)c(C)c(=O)[nH]2)cc1,Leishmania amazonensis,alamarBlue,axenic amastigotes,72 h,0.24 ± 0.07 µM
C[C@H](Cn1cnc2c(N)ncnc21)OCP(=O)(O)O,human alphaherpesvirus 1,viral replication,human keratinocytes,72 h,141 ± 53 µg/mL
Nc1ccn([C@@H]2CS[C@H](CO)O2)c(=O)n1,hepatitis B virus,viral replication,HepG2.2.15,,0.06 ± 0.007 µM
Cc1ccc(S(=O)(=O)N2C(=O)CSC2c2cccc([N+](=O)[O-])c2)cc1 (stereo not drawn),HIV-2,"viral cytopathicity, MTT","MT-4, ROD",,> 125 µM
Nc1ccn([C@@H]2O[C@H](CO)[C@@H](O)C2(F)F)c(=O)n1,human respiratory syncytial virus,viral replication,BEAS-2B,,0.09 µM
B1,Borrelia garinii,"cyst to spirochete conversion, flow cytometry",SKT-7.1,16 h,0.83 µM
Nc1ccc(S(=O)(=O)Nc2nccs2)cc1,Human gammaherpesvirus 8,latent viral DNA,BC-3,,6 ± 2 µg/mL
O=C(N[C@@H]1CCCc2c1[nH]c1ccc(Cl)cc21)c1ccccn1,Human papillomavirus 16,"viral DNA level, hybrid capture, item: episomal HPV16 DNA",W12-20850,96 h,0.005 µM
CCOP(=O)(OCC)[C@@H]1C[C@@H](Cn2c(=O)n(C(=O)c3cccc(F)c3)c(=O)c3ccccc32)ON1Cc1ccccc1 (relative stereo),human alphaherpesvirus 3,"viral replication, plaque reduction","HEL, Oka TK+",,6 to 8.5 µM
Cc1ccc(S(=O)(=O)N2C(=O)CSC2c2ccc([N+](=O)[O-])cc2)cc1 (stereo not drawn),herpes simplex virus 2,viral cytopathicity,"HEL, G",,> 100 µM
CC(=O)N(CCc1ccc(-c2ccccc2)cc1)CCc1cn(C)c2ccccc12,Human alphaherpesvirus 3,"viral plaque formation, plaque reduction","HEL, TK-deficient 07-1",,1.7 µM
Cc1ccc(S(=O)(=O)N2C(=O)CSC2c2ccccc2Cl)cc1 (stereo not drawn),HIV-2,"viral cytopathicity, MTT","MT-4, ROD",,> 125 µM
CCc1c(C)nc(-n2nc(C)cc2NC(=O)c2ccccc2SC)[nH]c1=O,Leishmania amazonensis,alamarBlue,axenic amastigotes,72 h,0.079 ± 0.0084 µM
Cc1ccc(S(=O)(=O)N2C(=O)CSC2c2ccccc2F)cc1 (stereo not drawn),HIV-2,"viral cytopathicity, MTT","MT-4, ROD",,111 µM
C/C(O)=C(\C#N)C(=O)Nc1ccc(C(F)(F)F)cc1,human coronavirus OC43,"cytopathic effect, CellTiter-Glo",Huh-7,7 d,> 100 µM
Cc1ccc(S(=O)(=O)N2C(=O)CSC2c2ccccc2)cc1 (stereo not drawn),herpes simplex virus 2,viral cytopathicity,"HEL, G",,> 100 µM
Cc1ccc(NC(=O)C(C)Sc2nc3ccccc3n2Cc2ccccc2)c(Cl)c1 (stereo not drawn),Measles morbillivirus,viral replication,Alaska,,0.5 µM

# Repeated from above:
Substance,organism,test,system,conditions,EC50
Nc1ccc(S(=O)(=O)Nc2nccs2)cc1,Human gammaherpesvirus 8,latent viral DNA,BC-3,,6 ± 2 µg/mL
O=C(N[C@@H]1CCCc2c1[nH]c1ccc(Cl)cc21)c1ccccn1,Human papillomavirus 16,"viral DNA level, hybrid capture, item: episomal HPV16 DNA",W12-20850,96 h,0.005 µM
CCOP(=O)(OCC)[C@@H]1C[C@@H](Cn2c(=O)n(C(=O)c3cccc(F)c3)c(=O)c3ccccc32)ON1Cc1ccccc1 (relative stereo),human alphaherpesvirus 3,"viral replication, plaque reduction","HEL, Oka TK+",,6 to 8.5 µM
Cc1ccc(S(=O)(=O)N2C(=O)CSC2c2ccc([N+](=O)[O-])cc2)cc1 (stereo not drawn),herpes simplex virus 2,viral cytopathicity,"HEL, G",,> 100 µM
CC(=O)N(CCc1ccc(-c2ccccc2)cc1)CCc1cn(C)c2ccccc12,Human alphaherpesvirus 3,"viral plaque formation, plaque reduction","HEL, TK-deficient 07-1",,1.7 µM
Cc1ccc(S(=O)(=O)N2C(=O)CSC2c2ccccc2Cl)cc1 (stereo not drawn),HIV-2,"viral cytopathicity, MTT","MT-4, ROD",,> 125 µM
